Measurements collected from several papers.
Parts stem from different laboratories: compare values within a part only.
Chain of UniProt Q8TBX8 (whole entry, looked up): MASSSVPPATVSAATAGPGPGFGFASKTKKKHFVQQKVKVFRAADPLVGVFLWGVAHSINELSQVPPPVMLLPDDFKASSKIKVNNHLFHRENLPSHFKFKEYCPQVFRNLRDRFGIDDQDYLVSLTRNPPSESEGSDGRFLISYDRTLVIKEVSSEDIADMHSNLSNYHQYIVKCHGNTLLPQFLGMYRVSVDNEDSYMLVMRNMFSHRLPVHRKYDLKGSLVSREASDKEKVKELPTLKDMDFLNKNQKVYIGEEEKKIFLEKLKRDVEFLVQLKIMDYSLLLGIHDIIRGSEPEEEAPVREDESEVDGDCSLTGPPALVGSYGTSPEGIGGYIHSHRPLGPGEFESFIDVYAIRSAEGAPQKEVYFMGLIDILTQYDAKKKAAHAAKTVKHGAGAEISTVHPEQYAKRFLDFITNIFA
Chain of UniProt Q9NSY1 (whole entry, looked up): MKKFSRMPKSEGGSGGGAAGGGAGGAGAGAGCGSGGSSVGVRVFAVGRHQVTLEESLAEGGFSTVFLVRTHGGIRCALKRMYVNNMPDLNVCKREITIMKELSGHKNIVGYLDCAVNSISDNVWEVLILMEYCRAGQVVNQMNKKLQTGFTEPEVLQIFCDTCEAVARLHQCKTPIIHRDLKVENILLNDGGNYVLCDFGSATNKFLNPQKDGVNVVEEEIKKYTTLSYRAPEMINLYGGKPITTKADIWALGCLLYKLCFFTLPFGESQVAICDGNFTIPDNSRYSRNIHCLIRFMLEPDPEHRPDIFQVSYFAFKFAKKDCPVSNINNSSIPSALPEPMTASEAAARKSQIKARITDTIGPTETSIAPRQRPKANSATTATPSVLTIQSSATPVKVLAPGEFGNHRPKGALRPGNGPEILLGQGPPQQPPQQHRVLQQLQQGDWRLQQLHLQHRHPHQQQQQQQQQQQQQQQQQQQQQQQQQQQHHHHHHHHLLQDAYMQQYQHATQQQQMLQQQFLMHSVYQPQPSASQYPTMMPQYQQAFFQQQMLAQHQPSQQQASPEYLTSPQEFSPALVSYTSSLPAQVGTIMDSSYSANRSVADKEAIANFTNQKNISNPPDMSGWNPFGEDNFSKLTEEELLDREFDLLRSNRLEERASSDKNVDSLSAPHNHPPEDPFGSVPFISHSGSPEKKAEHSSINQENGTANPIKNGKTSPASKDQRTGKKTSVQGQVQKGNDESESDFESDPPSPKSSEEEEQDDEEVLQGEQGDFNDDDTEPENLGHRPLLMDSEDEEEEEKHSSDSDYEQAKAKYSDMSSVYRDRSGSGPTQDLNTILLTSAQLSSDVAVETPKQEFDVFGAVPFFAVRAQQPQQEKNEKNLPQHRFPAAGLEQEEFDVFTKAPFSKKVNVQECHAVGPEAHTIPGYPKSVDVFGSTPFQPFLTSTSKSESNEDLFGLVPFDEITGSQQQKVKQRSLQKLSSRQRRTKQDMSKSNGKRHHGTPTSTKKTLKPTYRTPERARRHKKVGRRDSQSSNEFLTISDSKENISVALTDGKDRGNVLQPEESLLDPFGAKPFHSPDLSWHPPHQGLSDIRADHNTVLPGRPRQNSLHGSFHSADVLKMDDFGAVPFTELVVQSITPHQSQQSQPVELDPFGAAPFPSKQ
Chain of UniProt Q9H0K1 (whole entry, looked up): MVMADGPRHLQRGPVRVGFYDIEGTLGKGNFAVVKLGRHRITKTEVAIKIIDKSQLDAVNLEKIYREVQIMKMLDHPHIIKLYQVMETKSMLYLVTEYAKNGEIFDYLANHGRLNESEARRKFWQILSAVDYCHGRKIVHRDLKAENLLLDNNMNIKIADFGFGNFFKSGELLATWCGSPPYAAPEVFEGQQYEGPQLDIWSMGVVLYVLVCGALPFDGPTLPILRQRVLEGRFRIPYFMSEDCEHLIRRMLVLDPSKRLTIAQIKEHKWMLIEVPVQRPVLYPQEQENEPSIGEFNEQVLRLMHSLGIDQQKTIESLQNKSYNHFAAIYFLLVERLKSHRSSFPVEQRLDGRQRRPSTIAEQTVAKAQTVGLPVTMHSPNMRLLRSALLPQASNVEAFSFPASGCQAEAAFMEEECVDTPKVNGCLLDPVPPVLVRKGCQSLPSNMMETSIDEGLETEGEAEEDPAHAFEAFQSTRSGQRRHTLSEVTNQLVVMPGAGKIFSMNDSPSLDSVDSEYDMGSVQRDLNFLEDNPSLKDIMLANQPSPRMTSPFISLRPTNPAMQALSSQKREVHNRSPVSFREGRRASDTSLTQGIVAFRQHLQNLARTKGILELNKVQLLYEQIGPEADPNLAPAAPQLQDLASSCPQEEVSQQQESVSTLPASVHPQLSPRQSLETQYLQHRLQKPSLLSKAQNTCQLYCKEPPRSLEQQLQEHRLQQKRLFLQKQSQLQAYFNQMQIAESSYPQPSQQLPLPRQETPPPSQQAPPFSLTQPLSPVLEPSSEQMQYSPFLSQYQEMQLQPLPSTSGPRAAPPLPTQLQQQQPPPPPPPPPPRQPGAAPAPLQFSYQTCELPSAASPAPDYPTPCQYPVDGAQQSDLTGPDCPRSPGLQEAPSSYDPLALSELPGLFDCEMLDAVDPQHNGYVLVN
Chain of UniProt Q14004 (whole entry, looked up): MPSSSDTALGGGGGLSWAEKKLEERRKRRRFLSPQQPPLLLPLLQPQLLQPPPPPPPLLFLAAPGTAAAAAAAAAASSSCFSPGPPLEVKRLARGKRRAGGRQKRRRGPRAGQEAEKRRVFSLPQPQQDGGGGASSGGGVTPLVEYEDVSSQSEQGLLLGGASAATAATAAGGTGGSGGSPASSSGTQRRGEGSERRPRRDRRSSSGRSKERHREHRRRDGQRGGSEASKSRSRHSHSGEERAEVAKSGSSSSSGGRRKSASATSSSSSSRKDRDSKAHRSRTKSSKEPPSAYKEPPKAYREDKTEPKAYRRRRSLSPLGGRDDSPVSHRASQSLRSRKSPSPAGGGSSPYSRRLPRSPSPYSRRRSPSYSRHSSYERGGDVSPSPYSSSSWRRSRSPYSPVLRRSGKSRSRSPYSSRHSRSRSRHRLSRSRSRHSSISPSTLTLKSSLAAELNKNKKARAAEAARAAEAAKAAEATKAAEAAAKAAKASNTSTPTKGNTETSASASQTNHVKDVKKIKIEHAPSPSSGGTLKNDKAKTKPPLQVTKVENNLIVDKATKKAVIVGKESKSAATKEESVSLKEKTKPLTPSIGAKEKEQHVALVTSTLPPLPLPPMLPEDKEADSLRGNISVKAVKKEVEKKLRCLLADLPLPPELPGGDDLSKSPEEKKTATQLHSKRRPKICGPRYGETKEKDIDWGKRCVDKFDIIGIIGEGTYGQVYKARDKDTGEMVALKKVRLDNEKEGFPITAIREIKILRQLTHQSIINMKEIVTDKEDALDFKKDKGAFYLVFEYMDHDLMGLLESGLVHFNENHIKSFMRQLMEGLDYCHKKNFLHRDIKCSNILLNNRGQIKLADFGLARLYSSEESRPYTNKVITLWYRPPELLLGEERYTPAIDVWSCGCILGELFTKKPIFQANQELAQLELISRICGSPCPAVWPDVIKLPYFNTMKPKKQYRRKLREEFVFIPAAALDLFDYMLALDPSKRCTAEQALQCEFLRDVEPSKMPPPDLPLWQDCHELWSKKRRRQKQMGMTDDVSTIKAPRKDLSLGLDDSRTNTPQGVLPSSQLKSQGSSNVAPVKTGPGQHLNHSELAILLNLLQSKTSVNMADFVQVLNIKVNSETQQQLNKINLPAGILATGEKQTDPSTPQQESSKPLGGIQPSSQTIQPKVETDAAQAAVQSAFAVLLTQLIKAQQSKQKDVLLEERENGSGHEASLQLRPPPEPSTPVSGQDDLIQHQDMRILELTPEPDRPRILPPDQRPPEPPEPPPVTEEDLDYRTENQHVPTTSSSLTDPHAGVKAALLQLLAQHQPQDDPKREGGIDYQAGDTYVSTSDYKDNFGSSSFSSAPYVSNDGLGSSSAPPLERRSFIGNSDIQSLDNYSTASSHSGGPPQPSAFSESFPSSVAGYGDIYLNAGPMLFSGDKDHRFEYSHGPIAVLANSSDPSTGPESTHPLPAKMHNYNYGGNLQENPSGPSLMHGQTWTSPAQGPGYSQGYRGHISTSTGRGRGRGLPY

Study 1
Species: human
Sample: microsomes or S9
Concentration: 2 µM
Time: 0.5 h
Compound | remaining compound [%]
COc1cc(C2CCNCC2)ccc1Nc1ncc(Cl)c(Nc2ccccc2CS(=O)(=O)C(C)C)n1 | 21.3
COC(=O)c1cn2c(nc3cc(F)c(F)cc32)c(C#N)c1O | 63.1
CC(C)(C)OC(=O)N1CCO[C@H](Cn2nnc3ncc(Br)nc32)C1 | 54.2
COCc1nn2c(nnc3c(=O)n(NC(C)=O)ccc32)c1-c1ccc(F)cc1 | > 100
COc1ccc(-c2cc(-c3nc4c5ccccc5ncn4n3)n[nH]2)cc1 | 12.3
CC(=O)Nc1cccc(C(=O)Nc2ccccc2)c1 | 77.2
COc1ccc(C(=O)N2C[C@@H](NC(=O)N(C)C)[C@H](C(C)C)C2)c(OC)n1 | > 100
COc1ccc(N2C(=O)CCc3c(-c4ccccc4)cc(N(C)C)cc32)cc1 | 16.2
Cc1cnc(C(=O)N(CCC(=O)NC(C)C)CC2CCCO2)cn1 (stereo not drawn) | 64.4
Cc1cc(C)nc(N2CCN(c3ccccn3)CC2)n1 | 26.7
CC1=C(COc2ccc3ccc(=O)oc3c2)[C@@]2(C)CCC(=O)C(C)(C)[C@@H]2CC1 | 0.214
O=C(/C=C/c1ccc(O)cc1)NCCc1ccc(O)cc1 | > 99

Study 2
SMILES: Cc1c(NC(=O)c2cc(C(N)=O)nc3cc(F)ccc23)c(C(F)(F)F)nn1Cc1ccc(C#N)cc1
Concentration: 1 µM
target | test | remaining binding [%]
EGFR (Homo sapiens, UniProt P00533, del747-750/T751S) | cell-free assay, competition with immobilised ligand | 83
CHUK (Homo sapiens, UniProt O15111) | cell-free assay, competition with immobilised ligand | 65
MET (Homo sapiens, UniProt P08581, M1250T) | cell-free assay, competition with immobilised ligand | 91
STK10 (Homo sapiens, UniProt O94804) | cell-free assay, competition with immobilised ligand | 79
CSNK1A1L (Homo sapiens, UniProt Q8N752) | cell-free assay, competition with immobilised ligand | 100
PIP4K2C (Homo sapiens, UniProt Q8TBX8) | binding, competition with immobilised ligand | 100
FLT3 (Homo sapiens, UniProt P36888, D835H) | cell-free assay, competition with immobilised ligand | 100
SRPK1 (Homo sapiens, UniProt Q96SB4) | cell-free assay, competition with immobilised ligand | 83
MAP3K3 (Homo sapiens, UniProt Q99759) | cell-free assay, competition with immobilised ligand | 66
BMPR2 (Homo sapiens, UniProt Q13873) | cell-free assay, competition with immobilised ligand | 89
CDK19 (Homo sapiens, UniProt Q9BWU1) | competition binding | 82
CDK13 (Homo sapiens, UniProt Q14004) | cell-free assay, competition with immobilised ligand | 87
SBK1 (Homo sapiens, UniProt Q52WX2) | cell-free assay, competition with immobilised ligand | 75
Ribosomal protein S6 kinase alpha-2, N-terminal kinase domain (RPS6KA2, Homo sapiens, UniProt Q15349) | cell-free assay, competition with immobilised ligand | 85
BMP2K (Homo sapiens, UniProt Q9NSY1) | cell-free assay, competition with immobilised ligand | 96
FLT3 (Homo sapiens, UniProt P36888, D835V/ITD) | cell-free assay, competition with immobilised ligand | 80
Tyrosine-protein kinase ABL1, non-phosphorylated (ABL1, Homo sapiens, UniProt P00519, F317L) | cell-free assay, competition with immobilised ligand | 88
PRKD3 (Homo sapiens, UniProt O94806) | cell-free assay, competition with immobilised ligand | 74
CDK17 (Homo sapiens, UniProt Q00537) | cell-free assay, competition with immobilised ligand | 92
NEK3 (Homo sapiens, UniProt P51956) | cell-free assay, competition with immobilised ligand | 74
BMPR1B (Homo sapiens, UniProt O00238) | cell-free assay, competition with immobilised ligand | 77
AAK1 (Homo sapiens, UniProt Q2M2I8) | binding | 79
TTK (Homo sapiens, UniProt P33981) | cell-free assay, competition with immobilised ligand | 95
SIK2 (Homo sapiens, UniProt Q9H0K1) | cell-free assay, competition with immobilised ligand | 100
WNK3 (Homo sapiens, UniProt Q9BYP7) | cell-free assay, competition with immobilised ligand | 77

Study 3
Target: Ephrin type-A receptor 8 (EPHA8, Homo sapiens, UniProt P29322)
Effect on: enzyme activity
Action: inhibitor
Concentration: 0.5 µM
Baseline: control
Construct (P29322 1-1005): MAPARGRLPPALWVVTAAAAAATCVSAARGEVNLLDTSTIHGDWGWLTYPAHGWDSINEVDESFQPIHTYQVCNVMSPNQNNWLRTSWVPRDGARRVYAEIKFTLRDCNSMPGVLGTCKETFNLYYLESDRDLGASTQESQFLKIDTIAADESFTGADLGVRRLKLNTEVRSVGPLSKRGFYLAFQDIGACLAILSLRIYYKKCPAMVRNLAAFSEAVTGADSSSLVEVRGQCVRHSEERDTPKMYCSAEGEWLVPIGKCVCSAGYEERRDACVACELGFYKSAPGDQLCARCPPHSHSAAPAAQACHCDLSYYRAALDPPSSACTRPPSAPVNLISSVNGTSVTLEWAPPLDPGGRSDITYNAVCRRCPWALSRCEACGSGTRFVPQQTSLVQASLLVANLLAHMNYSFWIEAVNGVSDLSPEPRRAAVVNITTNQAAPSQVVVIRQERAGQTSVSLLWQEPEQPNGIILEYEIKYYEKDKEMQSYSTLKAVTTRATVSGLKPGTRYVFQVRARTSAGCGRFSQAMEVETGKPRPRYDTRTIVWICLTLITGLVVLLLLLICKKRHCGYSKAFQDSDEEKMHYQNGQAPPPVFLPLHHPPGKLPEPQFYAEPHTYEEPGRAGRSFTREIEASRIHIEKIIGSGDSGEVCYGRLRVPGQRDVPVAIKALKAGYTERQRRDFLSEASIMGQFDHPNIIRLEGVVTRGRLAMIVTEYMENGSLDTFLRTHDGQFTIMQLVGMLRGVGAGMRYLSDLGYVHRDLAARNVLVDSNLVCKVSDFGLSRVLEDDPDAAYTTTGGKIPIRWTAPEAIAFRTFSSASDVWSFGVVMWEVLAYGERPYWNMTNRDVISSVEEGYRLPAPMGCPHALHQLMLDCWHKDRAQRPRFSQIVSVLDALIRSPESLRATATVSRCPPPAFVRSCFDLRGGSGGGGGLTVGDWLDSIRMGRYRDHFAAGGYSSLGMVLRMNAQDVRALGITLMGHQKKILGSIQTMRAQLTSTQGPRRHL
Structure (SMILES) | remaining activity [%]
CC(C)n1cnc2c(Nc3cccc(Cl)c3)nc(NCCO)nc21 | 98.2
O=C1c2ccccc2-c2nc3nnnn3nc21 | 92.6
O=c1c(-c2ccc(F)cc2)c(-c2ccncc2)[nH]n1-c1ccc(Cl)cc1 | 94.4
FC(F)(F)c1ccc(/C=C/c2nc(COc3ccc(CCCCn4ccnn4)cc3)co2)cc1 | 104
O=C1NC(=O)/C(=C/c2ccc3c(c2)OC(F)(F)O3)S1 | 93.8
NC(=O)c1cccc(-c2cc(Nc3ccc(OC(F)(F)F)cc3)ncn2)c1 | 94.5
CC(C)N(CCC(=O)c1ccc2ccccc2c1)Cc1ccccc1 | 95.9
Nc1nc(Nc2ccc(S(N)(=O)=O)cc2)nn1C(=S)Nc1c(F)cccc1F | 98.5
CCN(CC)CCCCN1c2ccccc2Oc2ccc(Cl)cc21 | 102
COc1cc2c(N3CCN(C(=O)Nc4ccc(OC(C)C)cc4)CC3)ncnc2cc1OCCCN1CCCCC1 | 96.6
c1cc(-c2cnn3cc(-c4ccc(OCCN5CCCCC5)cc4)cnc23)ccn1 | 79.8
CCCCc1c(-c2ccc(O)cc2)[nH]c2nccnc12 | 97.4
NC(=O)c1ccc(-c2nc(-c3ccc4c(c3)OCCO4)c(-c3ccccn3)[nH]2)cc1 | 101
CC(C)(C)c1nc2c3cc[nH]c(=O)c3c3cc(F)ccc3c2[nH]1 | 105
N#CC(c1ccnc(NCCc2cccnc2)n1)c1nc2ccccc2s1 (stereo not drawn) | 98.5
O=C(O)/C=C/c1cc(Br)c(Br)c(Br)c1Br | 99.1
COc1cc2c(Nc3ccc(Br)cc3F)ncnc2cc1OCC1CCN(C)CC1 | 33.9
C[C@@H](N)[C@H]1CC[C@H](C(=O)Nc2ccncc2)CC1 | 91.4
N#C/C(=C(/N)SC1C=CC=CC1)c1cccc(C(O)c2ccncc2)c1 (stereo not drawn) | 97
CNc1cc2c(Nc3cccc(Br)c3)ncnc2cn1 | 87.9

Study 4
Target: CRBN/Zinc finger protein Helios (Homo sapiens, UniProt Q96SW2+Q9UKS7)
Chain of UniProt Q9UKS7 (whole entry, looked up): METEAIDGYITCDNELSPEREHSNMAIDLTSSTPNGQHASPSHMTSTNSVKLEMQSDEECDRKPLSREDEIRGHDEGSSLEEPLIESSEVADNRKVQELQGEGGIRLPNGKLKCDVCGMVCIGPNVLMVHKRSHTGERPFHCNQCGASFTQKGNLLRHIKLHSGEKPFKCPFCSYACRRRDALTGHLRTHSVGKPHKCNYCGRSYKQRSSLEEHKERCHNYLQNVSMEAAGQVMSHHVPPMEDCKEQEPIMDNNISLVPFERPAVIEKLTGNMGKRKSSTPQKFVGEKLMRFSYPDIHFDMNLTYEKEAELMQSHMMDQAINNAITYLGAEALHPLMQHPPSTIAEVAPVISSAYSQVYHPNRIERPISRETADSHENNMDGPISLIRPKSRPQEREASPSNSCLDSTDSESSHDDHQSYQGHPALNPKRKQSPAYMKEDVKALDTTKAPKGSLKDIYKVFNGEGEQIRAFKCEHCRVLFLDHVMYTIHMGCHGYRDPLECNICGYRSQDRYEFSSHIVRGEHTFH
Chain of UniProt Q96SW2 (whole entry, looked up): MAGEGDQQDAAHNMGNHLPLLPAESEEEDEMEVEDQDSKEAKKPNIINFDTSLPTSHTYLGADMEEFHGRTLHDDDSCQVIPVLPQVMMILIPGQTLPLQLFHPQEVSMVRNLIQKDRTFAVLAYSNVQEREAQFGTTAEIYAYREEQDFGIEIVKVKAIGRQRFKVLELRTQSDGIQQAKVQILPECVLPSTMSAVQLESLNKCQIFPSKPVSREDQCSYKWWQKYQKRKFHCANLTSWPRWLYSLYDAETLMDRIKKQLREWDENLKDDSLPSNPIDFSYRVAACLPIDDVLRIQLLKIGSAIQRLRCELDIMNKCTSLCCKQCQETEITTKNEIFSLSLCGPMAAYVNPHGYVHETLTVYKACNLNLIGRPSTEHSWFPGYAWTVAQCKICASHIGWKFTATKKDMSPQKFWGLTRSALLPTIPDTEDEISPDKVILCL
Action: degrader
Technique: HiBiT
Cell line: HEK293
Concentration: 0.5081 nM
Structure (SMILES) | protein remaining
O=C1CCC(N2Cc3c(ccc4c3OCCC43CCN(Cc4ccccc4)CC3)C2=O)C(=O)N1 (stereo not drawn) | 99%
O=C1CCC(N2Cc3c(ccc4c3OCC43CCC(Cc4ccccc4)CC3)C2=O)C(=O)N1 (stereo not drawn) | 91%
O=C1CCC(N2Cc3c(ccc4c3OCC43CCC(Oc4ccccc4)CC3)C2=O)C(=O)N1 (stereo not drawn) | 91.6%
